Published values of several laboratories.
Every numbered part comes from another study and shows a few of its results, in no order.

Sample 1 — method: protein binding microarray; molecule type: double-stranded DNA, one strand shown; medium: in vitro; tested at: not given; relative to: not given; direction: higher = stronger binding
Target: Histone acetyltransferase KAT6A, both winged helices, GST fusion (KAT6A, Homo sapiens, UniProt Q92794, residues 1-181)
Setting: 8-mer, flanks averaged, mean of 2 arrays, mostly near background
Target sequence (chain): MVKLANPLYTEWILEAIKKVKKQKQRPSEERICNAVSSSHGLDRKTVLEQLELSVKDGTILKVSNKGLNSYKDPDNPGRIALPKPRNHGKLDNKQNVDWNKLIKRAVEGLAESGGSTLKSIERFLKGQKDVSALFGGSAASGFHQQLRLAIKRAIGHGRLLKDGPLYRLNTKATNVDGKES
Sequence	E-score
CGACCCCC	0.0452
ATTGAAGA	-0.178
CAACGACG	0.0999
GAGAGCTC	-0.0923

Sample 2 — method: protein-binding microarray; molecule type: double-stranded DNA, one strand shown; medium: in vitro; tested at: 250 nM; setting: 60-bp whole probe; together with: salmon DNA 0.4 mg/ml; relative to: random background probes; direction: higher = stronger binding
Target: Interferon regulatory factor 5, full length, phosphomimetic (IRF5, Homo sapiens, UniProt Q13568-2, residues 1-514, K96S/S451D/S453D/S456D/S462D)
Sequence	log fluorescence
GCCTAGCACTTGTGTCTGGGATTTTGTCCGTGCTAGGTCTTGATTCGCTTGACGCTGCTG	-0.132 z-score
GCCTAGCACGACGGACTGGGGTTTCGAGACGTGCTAGTCTTGATTCGCTTGACGCTGCTG	0.88 z-score
GCCTAGCACTTAGATATCAGTCTCAATTAGTGCTAGGTCTTGATTCGCTTGACGCTGCTG	1.51 z-score
GCCTAGCACTCAGATATGCGGTAAGGGACTGTGCTAGTCTTGATTCGCTTGACGCTGCTG	-0.0996 z-score

Sample 3 — method: protein-binding microarray; molecule type: double-stranded DNA, one strand shown; medium: in vitro; tested at: not given; direction: higher = stronger binding
Target: Max-binding protein MNT, bHLH-zipper, MAX partner unstated (MNT, Homo sapiens, UniProt Q99583, residues 220-300)
Setting: k-mer, scored over probes, only values ≥0.25
Residues (chain): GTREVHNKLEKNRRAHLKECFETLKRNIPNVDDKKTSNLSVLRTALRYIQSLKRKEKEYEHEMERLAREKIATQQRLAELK
Sequence	E-score
CATGCGAG	0.395
CCCATGCC	0.331
ACATGAGA	0.324
CAACACGC	0.41
CGCGCCCC	0.292

Mixed results
Substance	target	test	system	setting	how to read	measurement	value
PhoQ, residues 284 288 289 292 302 303 SVHLDV	PhoP, residues 12 14 15 18 19 LWHVM (Escherichia coli, UniProt P23836)	Sort-seq, measured: YFP reporter	E. coli	PhoQ-PhoP variant library, together with: 10 µM Mg2+	relative to: high Mg2+ state, higher = stronger signaling	fold induction	8.37
